Assay results gathered from unrelated publications.
Every numbered part comes from another study and shows a few of its results, in no order.

Block 1 — method: RNA Bind-n-Seq; molecule type: RNA; sample: in vitro; tested at: not given; notes: RNA with constant flanks, ends assumed; baseline: input RNA pool; reading: higher = stronger binding
Target: RING finger protein unkempt homolog, zinc fingers 1-6, GST-SBP tag (UNK, Homo sapiens, UniProt Q9C0B0, residues 30-357)
Sequence of UniProt Q9C0B0 (30-357, looked up): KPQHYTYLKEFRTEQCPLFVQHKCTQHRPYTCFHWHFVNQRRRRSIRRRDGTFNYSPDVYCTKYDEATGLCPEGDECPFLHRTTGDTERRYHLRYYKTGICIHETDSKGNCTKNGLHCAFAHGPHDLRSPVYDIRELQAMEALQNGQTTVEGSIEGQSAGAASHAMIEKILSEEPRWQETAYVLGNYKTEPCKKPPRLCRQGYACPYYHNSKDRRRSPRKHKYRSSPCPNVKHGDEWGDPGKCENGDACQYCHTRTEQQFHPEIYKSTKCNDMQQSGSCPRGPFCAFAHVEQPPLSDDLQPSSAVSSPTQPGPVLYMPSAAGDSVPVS
Constant ends, left off below: GGGAGUUCUACAGUCCGACGAUC … CAACAGAGGAUUGAGCAUCA
For `GAAAAGUUAGAACCUUGCUGUUAAUCUCAUCUGCUGUGUGUGAAGAUCAAUCAGUGGUCCCUCCGAUUCUUCCCUGCUAACCAAGGAAACAGGGUCGGCCUUGAUAAAUCAAGGGAGUUG`, the bound/input enrichment was 0.28 ratio.
`CGGAAGAAAGAUACAAAUAAAAGCAUCAAGCAUUGCACAGUUCUCUCCAAUAAUGCCGAUCAUCUUUUACUGAACUUAACACUGUCUGAUAUCAUGGUCUCGCUGGCAAAUGCUUCAACC` gave a bound/input enrichment of 0.247 ratio.
`CAAACACCCUUUGUAUUCCAAAAUAGGGUCUCAAACAUUUUGUAAUUUUCAUUUAAAUUGUCCGGAGGCUUGGAGCUAUUAGUUAAUCUAUCUUCCAAUACACUGUUUAAUAUAGCACUG` gave a bound/input enrichment of 2 ratio.
`GGUGAUGAGGCAAGUGAAUUACGAUCAAUGUUAGAAGUUAACUACCCUAUGGAAAAUGGCACCGUACGAAAUUGGGAUGACAUGAAACACCUGUGGGACUACACAUUUGGACCAGAGAAA` gave a bound/input enrichment of 0.384 ratio.
With `GUGCAGACUGCCUCAAAACAAGUUGAUGGUGAUUAUGUUGUGUCUGAAUGGAGUGAAAUUACCGAAUUCUGCACCGCAGACUAUUCAAAAGUUCAUCUAACACAAUUGUUGGAGAAGGCU` the bound/input enrichment was 0.184 ratio.
For `CUUGUUUAUCACAUUGGCCUUACUCCAGCGAAACUUCCAGAUCUAGUGGAGAACAACCCUUCCGUCGCUAUAGAAAUGCUGCUGAAACUGAUGCAGUCAAGCCAGAUCACGGAGUAUUUC`, the bound/input enrichment was 0.518 ratio.
`UCAUGGUGUGAAAUAUAUCUACCCAAAGAGGUAACAUCCUAUAAAUAGUAGUAAUUAAUUCCGCUGCAACCUUUUUAGGUAUUAAAUUACAUGACAAACAGUUAAAAUGAAUUUAAGAAU` has a bound/input enrichment of 6.1 ratio.
`CUCUCUGACUAUCAACGUGGACGAGUAGAAAAUGUAUGUAAACGACUCAAUCUCCAGCCUUCCGCUUAUCUUUGGCAAAGAAACCAGGAAGAUUUGCUCCGAGAGAUGAUAGCUUCUAAU` gave a bound/input enrichment of 0.263 ratio.
With `GAAGCAAAUGUCCAUUUCCAAAGCAGCUGGCAUAUCAUCAGUACCACGGCUUUAUUCUUCUACCGUAAGUCUCCCCUCUUUACUGGGGAGAAAAAAAAUUCUCACUGGAGAAACCCUUAG` the bound/input enrichment was 0.991 ratio.
`AUGUAUCUUUCAUGAUUAAUGUGUGUGUGGGCAGCACCCUAAUCUAGAAUUCAUUCAUAAAACCGUGUUCCUACAUAGAAAAAUUUAGGAAGAGAAAUUACCCAUUGUGGUAAAGUUAUC` has a bound/input enrichment of 14 ratio.
The bound/input enrichment of `CCUUUUUGUUACUUGACACUUCCAUUGCCCAUGAAAAAAGAACGCACCUUGGAAGUUUACUCCGUCCGAAUGGAUCCACUUACCAAACCUAUGCAGUACAAAGUGGUUGUCCCCAAAAUU` is reported as 0.154 ratio.

Block 2 — method: universal PBM; molecule type: double-stranded DNA, one strand shown; sample: in vitro; tested at: not given; reading: higher = stronger binding
Target: Sal-like protein 4, full length isoform B (SALL4, Homo sapiens, UniProt Q9UJQ4-2, residues 1-616)
Notes: 8-mer, flanks averaged, mean of replicates
The E-score of `CCCTGTTA` is reported as 0.0866.
`ATCGTCCG` gave an E-score of -0.147.
For `AGCCACGC`, the E-score was -0.147.
For `GTGTTACA`, the E-score was 0.212.
For `CAGTTGCC`, the E-score was -0.105.
`AGCAACCG` gave an E-score of -0.127.
The E-score of `AACTTCGC` is reported as -0.0983.
`GTAAATTA` gave an E-score of 0.315.
The E-score of `CAAAAACC` is reported as 0.122.
`AAGCGGGG` has an E-score of -0.115.
`AGCCGGCT` has an E-score of -0.24.
`ATGAGTGA` gave an E-score of 0.102.
`CGTCTGCC` has an E-score of -0.169.
For `CTCGCCAA`, the E-score was -0.126.
With `ATCCTGGG` the E-score was -0.223.
With `GCAACAAA` the E-score was 0.183.
With `CCTCAATC` the E-score was 0.00289.
For `CATGTACA`, the E-score was 0.179.
The E-score of `GCAACCGA` is reported as -0.128.
`TTGGACAA` gave an E-score of 0.116.

Block 3 — method: competition protein-binding microarray; molecule type: double-stranded DNA, one strand shown; sample: in vitro; tested at: 2 µM; added: Cbf1 competitor, 0.05 µM; reading: higher = stronger binding; constant ends, left off below: … GTCTTGATTCGCTTGACGCTGCTG
Target: Phosphate system positive regulatory protein PHO4, full length, GST-tagged (PHO4, Saccharomyces cerevisiae, UniProt P07270, residues 1-312)
Notes: whole 60-bp probe, lowest competitor level
Construct (chain): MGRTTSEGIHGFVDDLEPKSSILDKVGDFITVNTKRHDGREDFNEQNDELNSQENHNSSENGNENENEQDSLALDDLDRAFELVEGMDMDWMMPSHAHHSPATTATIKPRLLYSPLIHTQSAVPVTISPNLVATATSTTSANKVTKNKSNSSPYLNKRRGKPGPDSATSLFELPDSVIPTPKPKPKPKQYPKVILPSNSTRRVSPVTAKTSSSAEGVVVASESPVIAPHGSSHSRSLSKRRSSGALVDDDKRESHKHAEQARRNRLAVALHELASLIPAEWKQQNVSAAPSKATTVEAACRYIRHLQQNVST
The fluorescence intensity of `ACTGAGCATCGTCGGCACGTCTTTGCAGCATCCAAT` is reported as 7780 a.u.
The fluorescence intensity of `AGTACACATACTTTGCACGTGCGGACGGAACAATGG` is reported as 18500 a.u.
With `CAAACCACTATATCGCACGCACACCAGGAAAGTAAA` the fluorescence intensity was 9640 a.u.
For `CATACCCAACCTTTTCACGTGTGATAAGATATTTGT`, the fluorescence intensity was 13900 a.u.
`TTATTGTCATTTGAAGGCGTGATGGGTATGTCGTTA` has a fluorescence intensity of 6990 a.u.
`CGCCCTTCCTTACGGTAGATGATGACACACTAAACG` gave a fluorescence intensity of 3560 a.u.
`TGCGCAACAACTTGTCACGTGTTTTTATGTCTAGAA` has a fluorescence intensity of 16200 a.u.
`GCACTAGTCCAATAAGTCGTGCGATTCCAAAGTTCA` has a fluorescence intensity of 6720 a.u.
With `AACAAGAGGTTTCGTCACAATTGCTAGGCGGTGCCA` the fluorescence intensity was 2720 a.u.
The fluorescence intensity of `AGCCAACGTTACGACCACGATGCCTATGAACACCAT` is reported as 10500 a.u.
`TTATGATACAGTTCTCCCGTGGTTACCAGCTTGGCA` gave a fluorescence intensity of 4880 a.u.
With `TACCAAAAGTATTCATACGTGGCCGCTTGTTACCCC` the fluorescence intensity was 5100 a.u.
For `AAAGCGGTAATTTTTCACGTGATCTCACATATCTAT`, the fluorescence intensity was 11200 a.u.
`GGCGAATGGAAAAATCACCTGGCAAGTCATTTCATC` gave a fluorescence intensity of 2910 a.u.
`TATTTTTCTGACGGCCACGTGAGATTCCTGGTTCGA` has a fluorescence intensity of 16400 a.u.
For `GTTCAAGTCTCCTTCCACGGGAATGGTCGGGTAAAT`, the fluorescence intensity was 5830 a.u.

Block 4 — method: protein binding microarray; molecule type: double-stranded DNA, one strand shown; sample: in vitro; tested at: not given; baseline: not given; reading: higher = stronger binding
Target: Histone acetyltransferase KAT6A, both winged helices, GST fusion (KAT6A, Homo sapiens, UniProt Q92794, residues 1-181)
Notes: 8-mer, flanks averaged, mean of 2 arrays, mostly near background
Residues (chain): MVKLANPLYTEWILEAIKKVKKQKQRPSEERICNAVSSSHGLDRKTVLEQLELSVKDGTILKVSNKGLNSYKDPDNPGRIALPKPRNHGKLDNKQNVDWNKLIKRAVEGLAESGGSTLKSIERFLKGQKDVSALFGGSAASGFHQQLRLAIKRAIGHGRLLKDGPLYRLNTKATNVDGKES
`AGCATAAT` has an E-score of 0.0923.
With `CAGTCGAG` the E-score was -0.213.
With `CGTGTCAA` the E-score was 0.129.
`GGATATAC` gave an E-score of 0.139.
`ATGTGCCA` has an E-score of -0.117.
`CAGTAATC` gave an E-score of -0.218.
`GGATACAA` has an E-score of -0.0643.
For `CCGACCGC`, the E-score was 0.244.
With `CGCTTTGA` the E-score was 0.111.
With `CCTGGGAC` the E-score was -0.111.
For `CCTACAAA`, the E-score was -0.0479.
The E-score of `ACAGCAGC` is reported as -0.102.
With `ACGCCATG` the E-score was 0.0284.
For `CTTGATGA`, the E-score was -0.0387.
The E-score of `AAGCGAGC` is reported as 0.0665.
`ACCCTAAG` gave an E-score of -0.206.
The E-score of `CAGGAGCC` is reported as -0.0314.
`ACGTTCTC` has an E-score of -0.019.
`ACCTACGG` has an E-score of 0.0935.

Block 5 — method: RNA Bind-n-Seq; molecule type: RNA; sample: in vitro; tested at: 365 nM; baseline: no-protein control; reading: higher = stronger binding
Target: RNA binding protein fox-1 homolog 2, RRM domain, GST-SBP tag (RBFOX2, Homo sapiens, UniProt O43251-10, residues 100-194)
Notes: natural RNA segment, single round, ends assumed
Constant ends, left off below: GGGAGUUCUACAGUCCGACGAUC … UGGAAUUCUCGGGUGCCAA
Residues (chain): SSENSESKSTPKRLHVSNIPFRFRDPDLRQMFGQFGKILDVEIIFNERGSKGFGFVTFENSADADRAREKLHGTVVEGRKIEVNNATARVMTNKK
For `AAAGCAAGAAAUACAAAUAUCAGCAGACAGAAUAUAGUGAUCCCAUAGUAAUACACAUCUGCCUUUGUCUCUUCACUCAGAGUCAACUGAAAAAUUGCAGGCCAAAACCU`, “RBNS enrichment (R)” read 0.599.
`CGGAGGUUGCAGUGAGCCAGGAUUGUGCCAUUGCACUCCAGCCUGGGCAACAAGAACAAAACUCCAUCUCAAAAAAUAAAAAUCCCAAUCCCAAGUCGAAAUCACCUCUU` — result for “RBNS enrichment (R)”: 0.768.
For `UGGUCCUUGUGCCCUCCCCACUCAUCCCUGGUCUGGUCCCCUGUUGCCUAUAGCCCUUUACCCUGAGCACCACCCCAACAGACUGGGGACCAGCCCCCUCGCCUGCCUGU`, “RBNS enrichment (R)” read 1.16.
`AGCCCUUCAAGUGCACUGAGCUAUGUGACUCGGAUGGUCUUUCACACGGCACAUUUGGACAUUUCCAGAACUACCAUGAGAUGGUUUAGACGGGAAUUCAUGCAAAUGAG` — result for “RBNS enrichment (R)”: 0.463.
`AAGUAGUAAUUUAUAAAUUUAGUAUUUGCAGUGGUUCACGCCUGUAAUCCCACCACUUUGGGAGGCCGAGGUGGGCGGAUCACGAGGUCAGGAAAUCGAGACCAUCCUGG` — result for “RBNS enrichment (R)”: 0.288.
`AACUUUUAGGACGAGCACUUGGGAGUGUGAGGCCUUCCUGGCUGCUUCUAUGUAGUCCUACCACCUGCACAGAGGGGCUGGCAGGGCAGAAGUGUGACCUCAGUUAUAUA` — result for “RBNS enrichment (R)”: 0.543.
Under “RBNS enrichment (R)”, `CCUGGGAAGAACUGCCCUUCUGCAAAGGGGGGACUGCAUGGUUGCAUUUUCAUCACUGAAAGUCAGAGGCCAAGGAAAUCAUUUCUACUUCUUUAAAAACUCCUUCUAAG` is recorded as 2.75.
Under “RBNS enrichment (R)”, `UGAUUUUUUAAAUAUCAUGUAAUGUUAAAACGUUUUCUAACAGUUUACUGUUGCUUAUCUCCAAGAUAUUAUGGAAUUAAGAAUUUUUCCAGAUGAGUGUUACAUAGAUU` is recorded as 0.568.
For `CUACCUUGGUGAUUUGGACCCUGGUUGCUUUGUGUCUAGUUUUCUAGACCCUUCAUCUCUUACUUGAUAGACUUACUAAUAAAAUGUGAAGACUAGACCAAUUGUCAUGC`, “RBNS enrichment (R)” read 0.495.
`CAUUUAUCUUGCAUUUCUUUAUUCUUUCUAAUUACCUAAAAUUCAAUAAAAGUUUAUUCAUAUAAAACAUGCUGUCAUUAAUUGUCAUAGUAGUAAUAGAUACAUGACUU` — result for “RBNS enrichment (R)”: 0.629.
Under “RBNS enrichment (R)”, `UGACCAUGCUCUGGGGACAGGGGUACCUUAGAUUCUCUGUCUAUUUUUCCUCUAGCAAGCCAGCUGUGCUGAAGCCCAGUAGAGAUGAAGAGACACCAGCCAGAGAAAAC` is recorded as 0.453.
For `CUGGUCAUUAACUCAGUCAUGCCGAGCACCAGGGCGCUGGUUCUGAAACGGUUAAGAGAAAGGCUCUGGGCUUUGCUCCCAUCUCUGCACAGCGCACUGUGGAGCAGAGA`, “RBNS enrichment (R)” read 1.74.

For quick reference, copied from above (block 4):
`AGCATAAT` has an E-score of 0.0923.
With `CAGTCGAG` the E-score was -0.213.
With `CGTGTCAA` the E-score was 0.129.
`GGATATAC` gave an E-score of 0.139.
`ATGTGCCA` has an E-score of -0.117.
`CAGTAATC` gave an E-score of -0.218.
`GGATACAA` has an E-score of -0.0643.
For `CCGACCGC`, the E-score was 0.244.
With `CGCTTTGA` the E-score was 0.111.
With `CCTGGGAC` the E-score was -0.111.
For `CCTACAAA`, the E-score was -0.0479.
